# Experimental data pooled from the literature.
# Protocols differ between the studies behind these lines.
SMILES,assay,system,conditions,scale,plasma concentration
COC(=O)N[C@H](C(=O)N1CCC[C@H]1c1nc(-c2ccc3c(c2)O[C@@H](c2ccccc2)n2c-3cc3cc(-c4c[nH]c([C@@H]5CCCN5C(=O)[C@@H](NC(=O)OC)C(C)C)n4)ccc32)c[nH]1)C(C)C,,"healthy adult humans, plasma","oral, 50 mg single dose, 24 h, geometric mean, fasted, with: grazoprevir 100 mg fixed-dose combination",,42.6 nM
Cc1ccccc1C(=O)Nc1ccc(C(=O)N2CCCC(O)c3cc(Cl)ccc32)c(C)c1 (centres unmarked),,"healthy humans, plasma","oral, 90 mg, 3 h postdose, day 4, with: rosuvastatin",,409 ng/mL
CNc1nc(Nc2ccc(-n3cnc(C)n3)c(OC)c2)nc2c1CC[C@H]2c1ccc(F)cc1,,human,"oral, 100 mg once daily, 24 h, day 28, multiple ascending dose, geometric mean",,297 ng/mL
C[C@]12C=CC(=O)C=C1CC[C@@H]1[C@@H]2[C@@H](O)C[C@@]2(C)[C@H]1CC[C@]2(O)C(=O)CO,,"human castration-resistant prostate cancer, plasma","10 mg daily, 48 days, sample A patients",,> 30 nM
COc1cc2c(cc1OC)CN(CCc1ccc(NC(=O)c3cc(OC)c(OC)cc3NC(=O)c3cnc4ccccc4c3)cc1)CC2,LC-MS/MS,"human, plasma","intravenous infusion, 2 to 8 mg/kg",,281 to 1310 ng/mL
CC[C@H](C)[C@H](NC(=O)[C@H](CO)NC(=O)[C@H](Cc1ccc(O)cc1)NC(=O)[C@H](CC(=O)O)NC(=O)[C@H](CO)NC(=O)[C@@H](NC(=O)[C@H](Cc1ccccc1)NC(=O)[C@@H](NC(=O)CNC(=O)[C@H](CCC(=O)O)NC(=O)[C@H](C)NC(=O)[C@@H](N)Cc1ccc(O)cc1)[C@@H](C)O)[C@@H](C)CC)C(=O)N[C@@H](C)C(=O)N[C@@H](CCSC)C(=O)N[C@@H](CC(=O)O)C(=O)N[C@@H](CCCCN)C(=O)N[C@H](C(=O)N[C@@H](Cc1c[nH]cn1)C(=O)N[C@@H](CCC(N)=O)C(=O)N[C@@H](CCC(N)=O)C(=O)N[C@@H](CC(=O)O)C(=O)N[C@@H](Cc1ccccc1)C(=O)N[C@H](C(=O)N[C@@H](CC(N)=O)C(=O)N[C@@H](Cc1c[nH]c2ccccc12)C(=O)N[C@@H](CC(C)C)C(=O)N[C@@H](CC(C)C)C(=O)N[C@@H](C)C(=O)N[C@@H](CCC(N)=O)C(=O)N[C@@H](CCCCN)C(=O)NCC(=O)N[C@@H](CCCCN)C(=O)N[C@@H](CCCCN)C(=O)N[C@@H](CC(N)=O)C(=O)N[C@@H](CC(=O)O)C(=O)N[C@@H](Cc1c[nH]c2ccccc12)C(=O)N[C@@H](CCCCN)C(=O)N[C@@H](Cc1c[nH]cn1)C(=O)N[C@@H](CC(N)=O)C(=O)N[C@H](C(=O)N[C@H](C(=O)N[C@@H](CCC(N)=O)C(=O)O)[C@@H](C)O)[C@@H](C)CC)C(C)C)[C@@H](C)CC,ELISA,"human, plasma","intravenous, 4.0 pmol/kg/min primed-continuous, 10 to 240 min, steady state, immunoreactive total",,~0.4 nM
Fc1ccc([C@@H]2CCNC[C@H]2COc2ccc3c(c2)OCO3)cc1,,healthy human subjects,"oral, 20 mg once daily, 6 h post-dose, day 14",,44.8 ng/mL
CC(=O)c1c(C)c2cnc(Nc3ccc(N4CCNCC4)cn3)nc2n(C2CCCC2)c1=O,,human patients,"oral, 125 mg once daily, 4 h postdose, with: letrozole 2.5 mg",,155 ng/mL
CN[C@H](CC(C)C)C(=O)N[C@H]1C(=O)N[C@@H](CC(N)=O)C(=O)N[C@H]2C(=O)N[C@H]3C(=O)N[C@H](C(=O)N[C@H](C(=O)O)c4cc(O)cc(O)c4-c4cc3ccc4O)[C@H](O[C@H]3C[C@](C)(N)[C@@H](O)[C@H](C)O3)c3ccc(c(Cl)c3)Oc3cc2cc(c3O[C@@H]2O[C@H](CO)[C@@H](O)[C@H](O)[C@H]2O[C@H]2C[C@](C)(NCc3ccc(-c4ccc(Cl)cc4)cc3)[C@@H](O)[C@H](C)O2)Oc2ccc(cc2Cl)[C@H]1O,,"human, plasma","intravenous, 1200 mg, 7 days after last dose",,4240 ng/mL
O.O.O=C(/C=C/c1ccc(Cl)cc1)N[C@@H](Cc1ccccn1)C(=O)NCC(=O)N1CCC(Oc2cc(C(F)(F)F)ncn2)CC1,,"human patients, plasma","dose not given, 24 h, with: docetaxel",relative to: Cmax,≤ 11%
CCC[C@H](NC(=O)[C@@H]1[C@H]2CCC[C@H]2CN1C(=O)[C@@H](NC(=O)[C@@H](NC(=O)c1cnccn1)C1CCCCC1)C(C)(C)C)C(=O)C(=O)NC1CC1,,human,"oral, 750 mg three times daily, 8 h, day 10, geometric mean, with: maraviroc 150 mg twice daily",,1940 ng/mL

# For quick reference, copied from above:
SMILES,assay,system,conditions,scale,plasma concentration
COc1cc2c(cc1OC)CN(CCc1ccc(NC(=O)c3cc(OC)c(OC)cc3NC(=O)c3cnc4ccccc4c3)cc1)CC2,LC-MS/MS,"human, plasma","intravenous infusion, 2 to 8 mg/kg",,281 to 1310 ng/mL
CC(=O)c1c(C)c2cnc(Nc3ccc(N4CCNCC4)cn3)nc2n(C2CCCC2)c1=O,,human patients,"oral, 125 mg once daily, 4 h postdose, with: letrozole 2.5 mg",,155 ng/mL
